Assay results collected from several papers.
Medium: plasma
Route: intravenous

Structure (SMILES)	species	dose	notes	clearance
C/C=C/C=C/C/C=C/CCCCCCCc1cccc(O)c1O	male Wistar rat	20 mg/kg	–	12.8 mL/min/kg
Cc1cc(Nc2nc(C[C@@]3(C(=O)O)CCN(Cc4cccc(Cl)c4F)[C@H](C)C3)cc(C)c2F)n[nH]1	Sprague-Dawley rat	0.5 mg/kg	single dose	0.729 mL/min/kg
c1ccc(C2(CCNC3CCC4(SCCS4)c4ccccc43)CCOC3(CCCC3)C2)nc1 (stereo not shown)	Sprague-Dawley rat	0.15 mg/kg	–	18.2 mL/min/kg
C[C@@](O)(C(F)F)[C@H](NC(=O)c1ccc(C#CC#CC2CC2)cc1)C(=O)NO	rat	40 mg/kg	–	29 mL/min/kg
CC[C@H](C)[C@@H]1NC(=O)[C@@H](NC(=O)[C@H](CC(=O)O)NC(=O)[C@H](CCCCN)NC(=O)[C@H](CCC(=O)O)NC(=O)[C@H](C)NC(=O)CN)CSSC[C@@H]2NC(=O)[C@@H]3CSSC[C@@H](C(=O)N[C@@H](CC(C)C)C(=O)O)NC(=O)[C@H](CCCCN)NC(=O)[C@H](CC(N)=O)NC(=O)[C@H](C)NC(=O)[C@H](Cc4ccc(O)cc4)NC(=O)[C@H](CO)NC(=O)[C@H](CO)NC(=O)[C@H](CSSC[C@H](NC(=O)[C@@H]4CCCN4C(=O)[C@H](C)NC(=O)CNC(=O)[C@@H]4CCCN4C(=O)[C@H](C)NC1=O)C(=O)N[C@@H](Cc1ccccc1)C(=O)NCC(=O)N[C@@H]([C@@H](C)O)C(=O)N[C@@H](CC(=O)O)C(=O)N[C@@H](CCCCN)C(=O)N1CCC[C@H]1C(=O)N3)NC(=O)[C@H](Cc1c[nH]c3ccccc13)NC(=O)[C@H](C)NC(=O)[C@H](CCCNC(=N)N)NC(=O)[C@@H]1CCCN1C(=O)[C@H](CC(N)=O)NC2=O	male Sprague-Dawley rat	1 mg/kg	–	7 mL/min/kg
CCCC[C@@H]1NC(=O)[C@H](Cc2ccc(O)cc2)NC(=O)[C@@H]2CCCN2C(=O)[C@H](CC(=O)O)NC(=O)[C@H](C)NC(=O)[C@H](Cc2ccccc2)NC(=O)[C@@H]2CSCCC(=O)N3CN(CN(C3)C(=O)CCSC[C@@H](C(=O)N[C@@H](C)C(N)=O)NC1=O)C(=O)CCSC[C@H](NC(C)=O)C(=O)N[C@@H](CC(C)(C)C)C(=O)N1CCC[C@H]1C(=O)N[C@@H](CCC(=O)O)C(=O)N[C@H](CCCCNC(=O)CCc1cn(CCOCCOCCOCCN(CCOCCOCCOCCC(=O)N[C@H]3CSCCC(=O)N4CN5CN(C4)C(=O)CCSC[C@H](NC(=O)[C@@H](CCC(=O)O)NC(=O)[C@H](Cc4cccc6ccccc46)NC(=O)[C@@H]4CCCN4C3=O)C(=O)N[C@@H](CCSC)C(=O)N[C@@H](CCCCNC(=N)N)C(=O)N[C@@H](CCC(=O)O)C(=O)N[C@@H](Cc3c[nH]c4ccccc34)C(=O)N[C@@H](CO)C(=O)N[C@@H]([C@@H](C)O)C(=O)N3CCC[C@H]3C(=O)N3C[C@H](O)C[C@H]3C(=O)N[C@@H](Cc3c[nH]c4ccccc34)C(=O)N[C@H](C(N)=O)CSCCC5=O)CCOCCOCCOCCn3cc(CCC(=O)NCCCC[C@H]4NC(=O)[C@H](CCC(=O)O)NC(=O)[C@@H]5CCCN5C(=O)[C@H](CC(C)(C)C)NC(=O)[C@@H](NC(C)=O)CSCCC(=O)N5CN6CN(C5)C(=O)CCSC[C@H](NC(=O)[C@H](Cc5ccc(O)cc5)NC(=O)[C@@H]5CCCN5C4=O)C(=O)N[C@@H](Cc4ccccc4)C(=O)N[C@@H](C)C(=O)N[C@@H](CC(=O)O)C(=O)N4CCC[C@H]4C(=O)N[C@@H](Cc4ccc(O)cc4)C(=O)N[C@@H](CCCC)C(=O)N[C@H](C(=O)N[C@@H](C)C(N)=O)CSCCC6=O)nn3)nn1)C(=O)N1CCC[C@H]1C(=O)N[C@@H](Cc1ccc(O)cc1)C(=O)N2	rat	2 mg/kg	–	39 mL/min/kg
C[C@@H]1CC[C@H]2[C@@H](C)CO[C@@H]3O[C@@]4(C)CC[C@@H]1[C@]32OO4	male Sprague-Dawley rat	5 mg/kg	–	138 mL/min/kg
C[C@]12CC[C@H](OC(=O)NC3CCNCC3)C[C@H]1CC[C@@H]1[C@@H]2CC[C@]2(C)[C@@H](c3ccc(=O)oc3)CC[C@]12O	male Sprague-Dawley rat	5 mg/kg	single dose	3.33 mL/min/kg
CCCC[C@@H]1NC(=O)[C@H](Cc2ccc(O)cc2)NC(=O)[C@@H]2CCCN2C(=O)[C@H](CC(=O)O)NC(=O)[C@H](C)NC(=O)[C@H](Cc2ccccc2)NC(=O)[C@@H]2CSCCC(=O)N3CN(CN(C3)C(=O)CCSC[C@@H](C(=O)N[C@@H](C)C(N)=O)NC1=O)C(=O)CCSC[C@H](NC(C)=O)C(=O)N[C@@H](CC(C)(C)C)C(=O)N1CCC[C@H]1C(=O)N[C@@H](CCC(=O)O)C(=O)N[C@H](CCCCNC(=O)CCc1cn(CCOCCOCCOCCN(CCOCCOCCOCCC(=O)N[C@H]3CSCCC(=O)N4CN5CN(C4)C(=O)CCSC[C@H](NC(=O)[C@@H](CC(=O)O)NC(=O)[C@H](Cc4cccc6ccccc46)NC(=O)[C@@H]4CCCN4C3=O)C(=O)N[C@@H](CCSC)C(=O)N[C@@H](CCCCNC(=N)N)C(=O)N[C@@H](CC(=O)O)C(=O)N[C@@H](Cc3c[nH]c4ccccc34)C(=O)N[C@@H](CO)C(=O)N[C@@H]([C@@H](C)O)C(=O)N3CCC[C@H]3C(=O)N3C[C@H](O)C[C@H]3C(=O)N[C@@H](Cc3c[nH]c4ccccc34)C(=O)N[C@H](C(N)=O)CSCCC5=O)CCOCCOCCOCCn3cc(CCC(=O)NCCCC[C@H]4NC(=O)[C@H](CCC(=O)O)NC(=O)[C@@H]5CCCN5C(=O)[C@H](CC(C)(C)C)NC(=O)[C@@H](NC(C)=O)CSCCC(=O)N5CN6CN(C5)C(=O)CCSC[C@H](NC(=O)[C@H](Cc5ccc(O)cc5)NC(=O)[C@@H]5CCCN5C4=O)C(=O)N[C@@H](Cc4ccccc4)C(=O)N[C@@H](C)C(=O)N[C@@H](CC(=O)O)C(=O)N4CCC[C@H]4C(=O)N[C@@H](Cc4ccc(O)cc4)C(=O)N[C@@H](CCCC)C(=O)N[C@H](C(=O)N[C@@H](C)C(N)=O)CSCCC6=O)nn3)nn1)C(=O)N1CCC[C@H]1C(=O)N[C@@H](Cc1ccc(O)cc1)C(=O)N2	rat	2 mg/kg	–	8.5 mL/min/kg
CCCCCCCC[C@@H]1NC(=O)[C@@H](Cc2ccccc2)NC(=O)[C@H](CCN)NC(=O)[C@@H](NC(=O)[C@H](CCN)NC(=O)[C@@H](NC(=O)[C@H](CCN)NC(=O)c2ccc(-c3ccccc3)cc2)[C@@H](C)O)CCNC(=O)[C@H]([C@@H](C)O)NC(=O)[C@H](CCN)NC(=O)[C@H](CCN)NC1=O	rat	–	single dose	0.66 to 1.3 mL/min/kg

Some of these lines once more:
Structure (SMILES)	species	dose	notes	clearance
C[C@@](O)(C(F)F)[C@H](NC(=O)c1ccc(C#CC#CC2CC2)cc1)C(=O)NO	rat	40 mg/kg	–	29 mL/min/kg
